Published values gathered from unrelated publications.
Each line is one published result; not all experiments were run side by side. Numbers after ± are the reported error.

`O=C(O)C[C@H](NC(=O)[C@H](CC(=O)O)NC(=O)[C@H](CC(=O)O)NC(=O)[C@H](CC(=O)O)NC(=O)[C@H](CC(=O)O)NC(=O)[C@H](CC(=O)O)NC(=O)[C@H](CC(=O)O)NC(=O)[C@H](CC(=O)O)NC(=O)[C@H](CC(=O)O)NC(=O)[C@H](CC(=O)O)NC(=O)[C@H](CC(=O)O)NC(=O)[C@H](CCCCNC(=O)c1ccc(C(=O)NCCOCCOB2BBBBBB3BBBB3B2)cc1)NC(=O)CN1CCN(CC(=O)O)CCN(CC(=O)O)CCN(CC(=O)O)CC1)C(=O)O` [gallium-67 labelled] has a tissue uptake of 0.05 %ID/g (gamma counting; mouse, ddY, male, 6 weeks old, blood; intravenous, 37 kBq, 3 h).
With `CC(C)C[C@H](NC(=O)C[C@H](O)[C@H](CC(C)C)NC(=O)[C@H](Cc1c[nH]cn1)NC(=O)CNC(=O)[C@@H](NC(=O)[C@H](C)NC(=O)[C@H](Cc1c[nH]c2ccccc12)NC(=O)[C@H](CCC(N)=O)NC(=O)[C@@H](Cc1ccccc1)NC(=O)CCNC(=O)CCSc1nnc(NCCC(=O)NCCC(=O)NCCCC[C@H](NC(=O)N[C@@H](CCC(=O)O)C(=O)O)C(=O)O)c2c1CCC1C(CC2)C1COC(=O)NCCNC(=O)CC[C@H](C(=O)O)N1CCN(CC(=O)O)CCN(CC(=O)O)CC1)C(C)C)C(N)=O` (some centres unmarked) [gallium-68 labelled] the tissue uptake was 0.82 %ID/g (athymic NMRI nude mouse, spleen; intravenous, dose not given, 2 h, added: bombesin 480 nmol (GRPR blocking)).
The AUC of `COc1cccc2c1C(=O)c1c(O)c3c(c(O)c1C2=O)C[C@@](O)(C(=O)CO)C[C@@H]3O[C@H]1C[C@H](NC(=O)[C@@H]2CCCN2C(=O)CNC(=O)[C@H](CC(C)C)NC(=O)[C@H](C)NC(=O)CP(=O)(O)O)[C@H](O)[C@H](C)O1` is reported as 923 µM·h (healthy mice, plasma; intravenous, 849.5 mg/kg).
`CC(C)[C@@H]1NC(=O)[C@H](Cc2ccccc2)NC(=O)[C@@H]2NC(=O)[C@H](Cc3ccccc3)NC(=O)[C@@H]3CCCN3C(=O)CNC(=O)[C@H](Cc3ccccc3)NC(=O)[C@@H]3CNCCCC[C@@H](C(=O)O)NC(=O)[C@@H]4NC(=O)[C@H](CC(N)=O)NC(=O)CNC(=O)[C@H]([C@@H](O)C(=O)O)NC(=O)[C@H](CSC[C@@H](NC(=O)[C@H](CCC(N)=O)NC(=O)[C@H](CCCCNC(=O)c5ccc(NN)nc5)NC(=O)[C@@H](N)CS[C@H]4C)C(=O)N[C@@H](CS[C@H]2C)C(=O)N3)NC1=O` [technetium-99m labelled] has a tissue uptake of 1.1 ± 0.15 %ID/g (rat, saline control, spleen; intravenous, 2 h after tracer, tracer 24 h after reperfusion).
The tissue uptake of `CC[C@H](C)[C@H](NC(=O)[C@H](Cc1ccccc1)NC(=O)[C@H](CCC(=O)O)NC(=O)[C@H](CCCNC(=N)N)NC(=O)[C@H](C)NC(=O)[C@H](C)NC(=O)[C@H](CCC(N)=O)NC(=O)[C@H](CCC(=O)O)NC(=O)[C@H](CCC(=O)O)NC(=O)[C@H](CC(C)C)NC(=O)[C@H](Cc1ccc(O)cc1)NC(=O)[C@H](CO)NC(=O)[C@H](CO)NC(=O)[C@@H](NC(=O)[C@H](CC(=O)O)NC(=O)[C@H](CO)NC(=O)[C@@H](NC(=O)[C@H](Cc1ccccc1)NC(=O)[C@@H](NC(=O)CNC(=O)[C@H](CCC(=O)O)NC(=O)[C@H](C)NC(=O)CCc1c[nH]cn1)[C@@H](C)O)[C@@H](C)O)C(C)C)C(=O)N[C@@H](C)C(=O)N[C@@H](Cc1c[nH]c2ccccc12)C(=O)N[C@@H](CC(C)C)C(=O)N[C@H](C(=O)N[C@@H](CCCNC(=N)N)C(=O)NCC(=O)N[C@@H](CCCNC(=N)N)C(=O)N[C@@H](CCCCNC(=O)COCCOCCNC(=O)COCCOCCNC(=O)CC[C@H](NC(=O)CCCCCCCCCCCCCCCCC(=O)O)C(=O)O)C(=O)NCC(=O)NCC(=O)N[C@@H](CO)C(=O)N[C@@H](CCCCNc1c(NCCCCCN(O)C(=O)CCC(=O)NCCCCCN(O)C(=O)CCC(=O)NCCCCCN(O)C(C)=O)c(=O)c1=O)C(=O)O)C(C)C` [zirconium-89 labelled] is reported as 0.07 %ID/g (ex vivo gamma counting; rat, muscle; subcutaneous, 3 nmol/kg, 24 h, added: [89Zr]-labelled peptide).
`CCCCCCCCCC(=O)N[C@@H](Cc1c[nH]c2ccccc12)C(=O)N[C@H](CC(N)=O)C(=O)N[C@@H](CC(=O)O)C(=O)N[C@@H]1C(=O)NCC(=O)N[C@@H](CCCNC(=O)CCC(=O)N2Cc3ccccc3-c3c(nnn3CCC[C@H](NC(=O)CCCCC[N+]3=C(C=CC4=CC(=CC=C5N(C)c6ccccc6C5(C)C)CCC4)C(C)(C)c4ccccc43)C(=O)NCCCCNC(=O)CCC(=O)N3Cc4ccccc4-c4c(nnn4CCOCCOCCOCCNC(=O)CN4CCN(CC(=O)NCCNC(=O)c5cccc(O)c5O)CCN(CC(=O)NCCNC(=O)c5cccc(O)c5O)CCN(CC(=O)NCCNC(=O)c5cccc(O)c5O)CC4)-c4ccccc43)-c3ccccc32)C(=O)N[C@@H](CC(=O)O)C(=O)N[C@H](C)C(=O)N[C@@H](CC(=O)O)C(=O)NCC(=O)N[C@H](CO)C(=O)N[C@@H]([C@H](C)CC(=O)O)C(=O)N[C@@H](CC(=O)c2ccccc2N)C(=O)O[C@@H]1C` has a half-life of over 4 h (human plasma; 1 µM, up to 240 min, pH 7.4, 37 °C).
For `C[C@@H](O)[C@@H](CO)NC(=O)[C@@H](CCCNC(=N)N)NC(=O)[C@@H]1CCCN1C(=O)[C@@H]1CSSC[C@H](NC(=O)[C@H](Cc2ccccc2)NC(=O)CN2CCN(CC(=O)O)CCN(CC(=O)O)CCN(CC(=O)O)CC2)C(=O)N[C@@H](Cc2ccc(O)cc2)C(=O)N[C@@H](Cc2ccccc2)C(=O)N[C@@H](CCC(N)=O)C(=O)N[C@@H](CC(N)=O)C(=O)N1` [gallium-68 labelled], the tissue uptake was 0.41 %ID/g (healthy Wistar rat, muscle; intravenous, 8 MBq, 60 min, individual animals).
For `Cc1ccccc1NC(=O)Nc1ccc(CC(=O)N[C@@H](CCCCNC(=O)/C=C/c2cccnc2)C(=O)N[C@@H](CCCC(=O)O)C(=O)NC2(C(=O)NCCOCCOCCOCCOCC(=O)N[C@@H](CCCCNC(=S)Nc3ccc(CCCN(CCN4CCN(CP(=O)(O)O)CCN(CP(=O)(O)O)CC4)CC(=O)O)cc3)C(N)=O)CCCCC2)cc1` [gallium-68 labelled], the intact tracer was over 95% (PBS; 2 h, 37 °C).

For quick reference, copied from above:
The AUC of `COc1cccc2c1C(=O)c1c(O)c3c(c(O)c1C2=O)C[C@@](O)(C(=O)CO)C[C@@H]3O[C@H]1C[C@H](NC(=O)[C@@H]2CCCN2C(=O)CNC(=O)[C@H](CC(C)C)NC(=O)[C@H](C)NC(=O)CP(=O)(O)O)[C@H](O)[C@H](C)O1` is reported as 923 µM·h (healthy mice, plasma; intravenous, 849.5 mg/kg).
